Measurements gathered from unrelated publications.
Compare with care: the assays were run in different laboratories. Values joined by “and” are separate records of one study, mostly repeats; a detail may differ. ± gives the spread as reported.
UCHL1: Ubiquitin carboxyl-terminal hydrolase isozyme L1 (UCHL1, Homo sapiens, UniProt P09936)
Voltage-dependent P/Q-type calcium channel subunit alpha-1A: Voltage-dependent P/Q-type calcium channel subunit alpha-1A (Homo sapiens, UniProt O00555)
TOP2B: DNA topoisomerase 2-beta (TOP2B, Homo sapiens, UniProt Q02880)
T1: G-quadruplex DNA (Homo sapiens); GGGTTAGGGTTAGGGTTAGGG

For `CC1CCCCN1c1nc(Cl)nc(N2CCCCC2C)n1` (stereo not drawn), the labelling was 7.11% (UCHL1; covalent, intact protein LC-MS; 12.5 µM).
`CC[C@H]1OC(=O)[C@H](C)[C@@H](O[C@H]2C[C@@](C)(OC)[C@@H](O)[C@H](C)O2)[C@H](C)[C@@H](O[C@@H]2O[C@H](C)C[C@H](N(C)C)[C@H]2O)[C@](C)(O)C[C@@H](C)C(=O)[C@H](C)[C@@H](O)[C@]1(C)O` gave an apparent Km of 7.27 ± 0.58 mM (uncharacterized protein (Saccharopolyspora erythraea, UniProt A4F7P9); concentration not given, pH 7.6, 20 °C, together with: p-nitrophenyl-β-D-glucopyranoside).
For `Nc1nc2c(ncn2[C@@H]2O[C@H](COP(=O)(O)O)[C@@H](O)[C@H]2O)c(=O)[nH]1`, the reaction rate was 0.817 s⁻¹ and -1.43 s⁻¹ and -0.0109 s⁻¹ (GUK1 (Homo sapiens, UniProt Q16774, S37A); enzyme activity, NADH-coupled; 125 µM).
`CC(=O)Nc1ccc(O)cc1` has an inhibition of 22% (Voltage-dependent P/Q-type calcium channel subunit alpha-1A; ion current, antagonist; HEK293; 10 µM).
`CCN1CCC[C@H]1CNC(=O)c1c(O)c(Cl)cc(Cl)c1OC`: “log2 fold change” -0.037 (Probable G-protein coupled receptor 85 (GPR85, Homo sapiens, UniProt P60893); β-arrestin recruitment, TANGO luminescence, measured: GPR85; concentration not given; baseline: basal luminescence).
The activation of `C=C1C(=O)O[C@@H]2C[C@@]3(C)CCCC(=C)[C@@H]3C[C@H]12` is reported as 1 fold (Nuclear receptor subfamily 1 group I member 3 (Homo sapiens, UniProt Q14994); reporter gene, Gal4 hybrid reporter; 10 µM; baseline: vehicle).
`O=c1nc(SCc2cc(F)cc(C(F)(F)F)c2)nc(SCc2ccc3nc(Cl)ccc3c2)[nH]1` has a decatenated DNA of 83.8% (TOP2B; decatenation; 7.8 µM, replicate 1).
With `O=[N+]([O-])c1cc(C(F)(F)F)ccc1NCc1ccco1` the ΔG was -8.05 ± 0.11 kcal/mol (Endothelial PAS domain-containing protein 1, PAS-B domain (EPAS1, Homo sapiens, UniProt Q99814, N288Q); binding, ITC, reverse mode).
For `CCC1(O)CCCN(C(=O)c2ccc(-c3ccc(F)c(NC(=O)CCl)c3)cc2)C1` (stereo not drawn), the protein adduct was 11.5% (DNA dC->dU-editing enzyme APOBEC-3B, C-terminal domain (Homo sapiens, UniProt Q9UH17); covalent modifier, intact protein mass spectrometry, measured: adduct +25721 Da; 25 µM, 1 h, 1-fold molar excess).
`CC(C)CCC[C@@H](C)[C@H]1CC[C@@H]2[C@@H]1CC[C@H]1[C@H]2CC=C2C[C@@H](O)CC[C@@H]21` gave a kobs of 0.00015 s⁻¹ (hh, HhC autoprocessing domain (Drosophila melanogaster, UniProt Q02936); autoprocessing, substrate, C-H-Y FRET reporter; 200 µM).
`C[C@H](CCC(C)(C)O)[C@H]1CC[C@H]2[C@@H]3CC=C4C[C@@](C)(O)CC[C@]4(C)[C@H]3CC[C@]12C` has a current response of 90 ± 5.7% (Glutamate NMDA receptor; GRIN1/GRIN2B (GRIN1/GRIN2B, Homo sapiens, UniProt Q05586+Q13224, S553A); positive allosteric modulator, two-electrode voltage clamp; Xenopus oocytes expressing GluN1-S553A; 10 µM, 0.02% cremophor, together with: 100 µM glutamate and glycine; baseline: without compound).
With `NC(=O)c1ccc[n+]([C@@H]2O[C@H](COP(=O)([O-])OP(=O)(O)OC[C@H]3O[C@@H](n4cnc5c(NCCNC(=O)CCCCCNC(=O)CCCCCNC(=O)CCCC[C@@H]6SC[C@@H]7NC(=O)N[C@@H]76)ncnc54)[C@H](O)[C@@H]3O)[C@@H](O)[C@H]2O)c1` the apparent Km was 0.05 mM (Protein mono-ADP-ribosyltransferase PARP8 (Homo sapiens, UniProt Q8N3A8); substrate, DELFIA auto-modification).
For `Cc1ccc(S(=O)(=O)n2nc(SCc3ccc(Cl)cc3)nc2N)cc1`, “probe labeling increase” read 2.2 fold (LYPLAL1 (Homo sapiens, UniProt Q5VWZ2); enzyme activity, activator, gel-based ABPP; purified protein; concentration not given, together with: FP-rhodamine; baseline: DMSO).
The labelling of `Cc1cccc(Cc2cnc(NC(=O)CCl)s2)c1` is reported as 46.3% (UCHL1; covalent, intact protein LC-MS; 12.5 µM).
With `CC(=O)Oc1ccccc1C(=O)O` the inhibition was 0% (Voltage-dependent P/Q-type calcium channel subunit alpha-1A; ion current, antagonist; HEK293; 30 µM).
With `Cc1cc(-c2ccnc3[nH]cc(F)c23)cc(F)c1[C@@]1(O)[C@H](C)CN(C(=O)CN)C[C@@H]1C` the inhibition was 91.7% (PIK3C3 (Homo sapiens, UniProt Q8NEB9); ATP probe binding, KiNativ, measured: ATP site; HEK293T cell lysate; 10 µM).
With `Cc1cc(Oc2ncccc2CN2CCN(c3ccc(Br)cc3)CC2)ccc1-c1c(C)c(=O)[nH]c(=O)n1C` the selectivity ratio was 2 (ADRA2C (Homo sapiens, UniProt P18825); binding, radioligand binding; together with: [3H]rauwolscine; baseline: Ki alpha2B over Ki alpha2C).
`Cc1nc(CNC(=O)N2CCSSCC2)cs1` gave a labelling of 12.6% (UCHL1; covalent, intact protein LC-MS; 12.5 µM).
The current density of `O=C(O)c1ccc([N+](=O)[O-])cc1` is reported as 179 pA/pF and 154 pA/pF and 251 pA/pF and 110 pA/pF and 169 pA/pF and 83.3 pA/pF and 82.6 pA/pF (BEST1 (Homo sapiens, UniProt O76090); whole-cell patch clamp; HEK293 transiently expressing channel; concentration not given, membrane potential 100 mV).
`Oc1ccccc1-c1n[nH]cc1-c1ccnc2ccccc12`: “log2 fold change” 0.11 (Extracellular signal-regulated kinase 1 (CEK1, Candida albicans, UniProt Q5A1D3); kinase binding, MIB/MS competition; Candida albicans lysate; 1 µM; baseline: DMSO, negative = stronger binding).
`Nc1ncnc2c1ncn2[C@@H]1O[C@H](COP(=O)(O)CP(=O)(O)OP(=O)(O)O)[C@@H](O)[C@H]1O` has a specific binding of 11900 CCPM and 6020 CCPM and 5040 CCPM (P2X purinoceptor 1 (P2RX1, Homo sapiens, UniProt P51575, S286A); saturation binding; HEK293; 130 nM).
For `Cn1ncc(S(=O)(=O)NC2CC(C)(C)Oc3ccc(F)cc32)c1C(=O)O` (stereo not drawn), the remaining activity was 102% (malate dehydrogenase; enzyme activity, inhibitor; 200 µM, pH 7.0, 1% DMSO, aggregation counter-screen).
`CC(C)COc1ccc(CNC(=O)N(Cc2ccc(F)cc2)C2CCN(C)CC2)cc1` gave an inhibition of 97% (Voltage-dependent P/Q-type calcium channel subunit alpha-1A; ion current, antagonist; HEK293; 30 µM).
The binding entropy of `CC(=O)N[C@@H](Cc1c[nH]cn1)C(=O)N[C@@H](CC(=O)O)C(=O)N1CCC[C@H]1C(=O)N1CCC[C@H]1C(=O)N[C@@H](CC(C)C)C(=O)N[C@@H](Cc1c[nH]cn1)C(=O)N[C@@H](CO)C(=O)N[C@H](C(=O)N[C@@H](C)C(N)=O)[C@@H](C)OP(=O)(O)O` is reported as -22.5 cal/(mol·K) (PLK1 (Homo sapiens, UniProt P53350); polo-box domain binding, isothermal titration calorimetry; concentration not given, 25 °C).
`Cc1ccc(C2CC(c3cccs3)=NN2C(=O)CCl)cc1` (stereo not drawn) has a labelling of 29.8% (UCHL1; covalent, intact protein LC-MS; 12.5 µM).
For `NCCCS(=O)(=O)O`, “normalised MST signal” read -0.00198 (SLC6A6 (Homo sapiens, UniProt P31641, G62A); binding, microscale thermophoresis; 1 mM, room temperature, together with: 50 nM labelled protein; higher = more binding).
The ΔH of `CO[C@@H]1O[C@@H](C)[C@@H](O)[C@@H](O)[C@@H]1O` is reported as -7.84 kcal/mol (fleA (Aspergillus fumigatus, UniProt Q4WW81); ITC).
For `O=c1nc(SCc2cc(F)cc(C(F)(F)F)c2)nc(SCc2ccc3sccc3c2)[nH]1`, the decatenated DNA was 1% (TOP2B; decatenation; 15.6 µM, replicate 2).
With `c1cc(-c2nc(N3CCNCC3)c3ccccc3n2)nc(-c2nc(N3CCNCC3)c3ccccc3n2)c1` the ΔTm was over 15 °C (T1, G-quadruplex DNA (Homo sapiens); FRET melting; 1 µM, pH 7.2, KCl 10 mM).
`C#CCCC1(CC[C@H](NC(=O)NCCCCCCNC(=O)NCCN)C(N)=O)N=N1`: “normalized labeling ratio” 0.185 (FKBP1A (Homo sapiens, UniProt P62942); photoaffinity labeling, in-gel fluorescence, measured: Alexa Fluor 647 click label; 40 µM, UV irradiation 365 nm; baseline: probe over FKBP12 signal, higher = more labeling).
The labelling of `N#CC(=Cc1ccc(C#N)cc1)C(=O)N1CCCC1` is reported as 13.7% (UCHL1; covalent, intact protein LC-MS; 12.5 µM).
`COc1ccc(CCNCc2ccc(OCc3ccc(Cl)nc3)c(OC)c2)cc1OC` gave an inhibition of -11.6% (Trypanosoma cruzi; reporter translation, Renilla luciferase mRNA translation; cell-free extract; 40 µM; baseline: DMSO).
For `CCn1cc(C(=O)O)c(=O)c2cc(F)c(N3CCNCC3)nc21`, the IC30 was over 30000 nM (Voltage-dependent P/Q-type calcium channel subunit alpha-1A; ion current, antagonist, automated patch clamp).
`Nc1nc2c(ncn2[C@@H]2O[C@@H]3COP(=O)(O)O[C@H]4[C@@H](O)[C@H](n5cnc6c(=O)[nH]c(N)nc65)O[C@@H]4COP(=O)(O)O[C@H]3[C@H]2O)c(=O)[nH]1` gave a ΔH of 2.22 ± 0.11 kcal/mol (Cell cycle histidine kinase CckA, CA domain (Caulobacter vibrioides, UniProt Q9X688); binding, ITC; together with: ADP 5 mM).
`Cc1nc(S(=O)(=O)Nc2cccc(-n3nn[nH]c3=O)c2)c(Br)n1C` has a remaining activity of 97% (malate dehydrogenase; enzyme activity, inhibitor; 200 µM, pH 7.0, 1% DMSO, aggregation counter-screen).
With `N#Cc1ccc2[nH]cc(CCCCN3CCN(c4ccc5oc(C(N)=O)cc5c4)CC3)c2c1` the Hill coefficient was 1.15 ± 0.14 (SLC6A4 (Homo sapiens, UniProt P31645, F556A/I172M); [3H]5-HT uptake, inhibitor; COS-7).
`Cn1ncc(S(=O)(=O)NC2CCSc3c(F)cccc32)c1C(=O)O` (stereo not drawn) has a remaining activity of 83% (malate dehydrogenase; enzyme activity, inhibitor; 200 µM, pH 7.0, 1% DMSO, aggregation counter-screen).
`O=C(O)Cc1ccccc1Nc1c(Cl)cccc1Cl` gave an inhibition of 4% (Voltage-dependent P/Q-type calcium channel subunit alpha-1A; ion current, antagonist; HEK293; 10 µM).
With `CCn1nnc(Br)c1CNS(=O)(=O)c1cccc(Cl)c1O` the remaining activity was 112% (malate dehydrogenase; enzyme activity, inhibitor; 200 µM, pH 7.0, 1% DMSO, aggregation counter-screen).
With `CCN1CCN(c2ccccc2NC(=O)c2cc(S(=O)(=O)N(CC)c3ccccc3)ccc2Cl)C1=O` the selectivity ratio was > 40 fold and > 44 fold (N-myristoyltransferase (Cryptosporidium parvum, UniProt Q5CV46); enzyme activity, inhibitor; baseline: HsNMT1 IC50 over target IC50).
For `O=C(C1=C[C@H](C2CCCCC2)C[C@H](OCCCCO)O1)N1CCN(Cc2ccc3c(c2)OCO3)CC1`, the inhibition was 20.6% (Trypanosoma cruzi; reporter translation, Renilla luciferase mRNA translation; cell-free extract; 40 µM; baseline: DMSO).
`CCOC(=O)c1[nH]c2cc(Cl)ccc2c1C(C(=O)NC(C)(C)C)N(C=O)Cc1ccc(Oc2ccccc2)cc1` (stereo not drawn) gave a Ki of 1800 nM (MDM2 (Homo sapiens, UniProt Q00987); fluorescence polarization).
`COc1cc(C)[nH]c(=O)c1CN1CCc2c(Cl)cc([C@H](OC)C3COC3)c(Cl)c2C1=O` gave a residence time of 13 h (EZH2 (Homo sapiens, UniProt Q15910); binding; activated PRC2 with H3K27me3 peptide).
For `O=C(O)c1cccc(C(O)P(=O)(O)O)n1` (stereo not drawn), the dissociative half-life was 18 ± 3.3 min (Beta-lactamase L1 (Stenotrophomonas maltophilia, UniProt P52700); binding, inhibitor, nitrocefin progress curves).
`CCN(CCO)CCCC(C)Nc1ccnc2cc(Cl)ccc12` (stereo not drawn) has an inactivation V1/2 of -86.2 ± 4.5 mV (SCN5A (Homo sapiens, UniProt Q14524); sodium current; 30 µM).

For quick reference, copied from above:
`CC(=O)Nc1ccc(O)cc1` has an inhibition of 22% (Voltage-dependent P/Q-type calcium channel subunit alpha-1A; ion current, antagonist; HEK293; 10 µM).
`CCN1CCC[C@H]1CNC(=O)c1c(O)c(Cl)cc(Cl)c1OC`: “log2 fold change” -0.037 (Probable G-protein coupled receptor 85 (GPR85, Homo sapiens, UniProt P60893); β-arrestin recruitment, TANGO luminescence, measured: GPR85; concentration not given; baseline: basal luminescence).
The activation of `C=C1C(=O)O[C@@H]2C[C@@]3(C)CCCC(=C)[C@@H]3C[C@H]12` is reported as 1 fold (Nuclear receptor subfamily 1 group I member 3 (Homo sapiens, UniProt Q14994); reporter gene, Gal4 hybrid reporter; 10 µM; baseline: vehicle).
`O=c1nc(SCc2cc(F)cc(C(F)(F)F)c2)nc(SCc2ccc3nc(Cl)ccc3c2)[nH]1` has a decatenated DNA of 83.8% (TOP2B; decatenation; 7.8 µM, replicate 1).
